# Experimental data from different studies.
# Compare with care: the assays were run in different laboratories.
# Technique: steady-state kinetics
# B1: protein (Candidatus Protochlamydia amoebophila, UniProt A0A2P9HA01); chain KNQQNSVSSTLLILKKRSLILFQFFLIIIVYHTLKDLKDTIVITASDAGAEIIPFIKIWGMLPLAICASYFFAKFYNKFGREKTFYIFSSFLLVNYLFFAFVLYPFRKFFYLENVADYLHMILPVGAKGFVAMVSYWHYTLFYLTAELWSMLILSILFWGYVSDTTSLVEAKKFYPLCMFVGNMAGIISGQLSHFLCQHLSDFMSWERTLQWMIGIVCVCGLLIMIINRRLALTTDFSAIKQKVKKQIAPSSFKDNVMDVLRTGPLLCIAVLVVGFGLTTNLIEVIWKENIRQLHPTPQAYNAYINQLTSLIGTGAVCIALLSSWIFRKFTWTQIALTTPLCLLITSSAFFSSLLMPKELLAEIASFFQFSPTQLIVTLGSICYVFSMSAKYTIFDTSKEIAFLSIETEKRTYAKSVIDSIGSRLGKSGASCFYQFLLIAFGIASEHILLIGVVSIIMIGISIFATKKLGGQLSGKNENHRFIEASHG
# B2: CMBL (Homo sapiens, UniProt Q96DG6); chain MANEAYPCPCDIGHRLEYGGLGREVQVEHIKAYVTKSPVDAGKAVIVIQDIFGWQLPNTRYIADMISGNGYTTIVPDFFVGQEPWDPSGDWSIFPEWLKTRNAQKIDREISAILKYLKQQCHAQKIGIVGFCWGGTAVHHLMMKYSEFRAGVSVYGIVKDSEDIYNLKNPTLFIFAENDVVIPLKDVSLLTQKLKEHCKVEYQIKTFSGQTHGFVHRKREDCSPADKPYIDEARRNLIEWLNKYM
# B3: ABCB6 (Homo sapiens, UniProt Q9NP58); chain APGLRPQSYTLQVHEEDQDVERSQVRSAAQQSTWRDFGRKLRLLSGYLWPRGSPALQLVVLICLGLMGLERALNVLVPIFYRNIVNLLTEKAPWNSLAWTVTSYVFLKFLQGGGTGSTGFVSNLRTFLWIRVQQFTSRRVELLIFSHLHELSLRWHLGRRTGEVLRIADRGTSSVTGLLSYLVFNVIPTLADIIIGIIYFSMFFNAWFGLIVFLCMSLYLTLTIVVTEWRTKFRRAMNTQENATRARAVDSLLNFETVKYYNAESYEVERYREAIIKYQGLEWKSSASLVLLNQTQNLVIGLGLLAGSLLCAYFVTEQKLQVGDYVLFGTYIIQLYMPLNWFGTYYRMIQTNFIDMENMFDLLKEETEVKDLPGAGPLRFQKGRIEFENVHFSYADGRETLQDVSFTVMPGQTLALVGPSGAGKSTILRLLFRFYDISSGCIRIDGQDISQVTQASLRSHIGVVPQDTVLFNDTIADNIRYGRVTAGNDEVEAAAQAAGIHDAIMAFPEGYRTQVGERGLKLSGGEKQRVAIARTILKAPGIILLDEATSALDTSNERAIQASLAKVCANRTTIVVAHRLSTVVNADQILVIKDGCIVERGRHEALLSRGGVYADMWQLQQGQEETSEDTKPQTMER
# B4: protein (UniProt A0A4Y6I1F8); chain MGSEVVSKKHEFGALEVEGIDFRASVAALGSTKKLVLGGAGFRGLEINGNLVKFTAIGIYVEEAIIPHLSPKLGGKTVEELCANELLFEEVLSAPFDKLIRVVFLLPLTGPQYSEKVVERIGLLPNPGLKEESIKQFLEIFKAENFPPRTSLVCSFTEDGLKIAFMKGPDFPEESDAVIEDKYFARAFLATIIAKDGVSPMAKLSFAERVSKYL
# B5: enzyme (Arabidopsis thaliana, UniProt Q949Q0); chain ISGPPDIINTNRDQRKVVRIAWEKLVRWSRSLRAKAKTDVLERTRKVVVLGGGSFGTAMAAHVARRKEGLEVNMLVRDSFVCQSINENHHNCKYFPEHKLPENVIATTDAKAALLDADYCLHAVPVQFSSSFLEGIADYVDPGLPFISLSKGLELNTLRMMSQIIPIALKNPRQPFVALSGPSFALELMNNLPTAMVVASKDKKLANAVQQLLASSYLRINTSSDVTGVEIAGALKNVLAIAAGIVDGMNLGNNSMAALVSQGCSEIRWLATKMGAKPTTITGLSGTGDIMLTCFVNLSRNRTVGVRLGSGETLDDILTSMNQVAEGVATAGAVIALAQKYNVKLPVLTAVAKIIDNELTPTKAVLELMNLPQIEEV
# B6: TcC (Trypanosoma cruzi, UniProt Q4DGA3); chain MPREYEFAEKILFTEEEIRTRIMEVAKRIADDYKGKGLRPYVNPLVLISVLKGSFMFTADLCRALSDFNVPVRMEFICVSSYGEGVTSSGQVRMLLDTRHSIEGHHVLIVEDIVDTALTLNYLYHMYFTRRPASLKTVVLLDKREGRRVPFSADYVVANIPNAFVIGYGLDYDDTYRELRDIVVLRPEVYAEREAARQKKQRAIGSADTDRDAKREFHSKY
# B7: enzyme I209A (Thermococcus kodakarensis, UniProt Q5JID5); chain MLYVEILGNLPEMARDEVKAMLELGGGEIIGQDYLFLKVDAGEKAFPFLDRLGLAHEYGLLLVEADSVEELLQKAGEVEWPIKGAFKVDTETMANCRHDVLDLPRKLGAVIHAQGFRVNLSKPDTVVRVYCGERLYAGIRLRYFDPKDFEKRKAHHRPFFRPISLHPRVSRALVNLTKATREILDPFMGAGGILIEAGLLGLRVYGVDARPEMVEGAETNLKHYGVRDYTLKLGDATRLEDLFPDKKFEAVATDPPYGTAATLAGRKRDELYRKALRSIYNVLEDGGRLAIAFPTDFNGKAEAEAVGFRTLGRYYQRVHKSLERYFYVFEK
# UniProt P60560, sequence (whole entry, looked up): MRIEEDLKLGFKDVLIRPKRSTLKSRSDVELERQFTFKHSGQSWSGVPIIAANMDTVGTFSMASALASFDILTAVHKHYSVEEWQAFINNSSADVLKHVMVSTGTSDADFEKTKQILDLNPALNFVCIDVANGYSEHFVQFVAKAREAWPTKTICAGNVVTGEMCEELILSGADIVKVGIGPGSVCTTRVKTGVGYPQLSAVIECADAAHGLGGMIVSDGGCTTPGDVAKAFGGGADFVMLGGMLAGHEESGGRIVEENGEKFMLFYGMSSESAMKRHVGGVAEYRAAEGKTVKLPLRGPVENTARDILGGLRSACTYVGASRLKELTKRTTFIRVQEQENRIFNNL
# UniProt P05181, sequence (whole entry, looked up): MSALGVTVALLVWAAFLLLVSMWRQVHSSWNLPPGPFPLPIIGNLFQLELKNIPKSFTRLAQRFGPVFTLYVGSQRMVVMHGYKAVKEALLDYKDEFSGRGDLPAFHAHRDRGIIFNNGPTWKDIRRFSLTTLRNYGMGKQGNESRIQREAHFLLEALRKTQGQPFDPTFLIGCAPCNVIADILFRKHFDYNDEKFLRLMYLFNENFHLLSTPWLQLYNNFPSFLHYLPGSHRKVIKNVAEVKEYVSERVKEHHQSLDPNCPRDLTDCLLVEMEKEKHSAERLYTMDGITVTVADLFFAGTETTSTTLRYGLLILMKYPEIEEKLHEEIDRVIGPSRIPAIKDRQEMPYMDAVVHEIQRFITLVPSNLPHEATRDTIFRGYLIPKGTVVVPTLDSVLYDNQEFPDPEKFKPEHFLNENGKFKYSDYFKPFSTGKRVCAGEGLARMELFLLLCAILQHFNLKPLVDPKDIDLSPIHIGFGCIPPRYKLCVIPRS
Molecule,substrate,pH,temperature,notes,added,Km [µM]
"CYP2E1 (Homo sapiens, UniProt P05181)",C=Cc1ccc(Cl)cc1,pH 7.4,37 °C,,,39.4
"guaC (Escherichia coli, UniProt P60560)",Nc1nc2c(ncn2[C@@H]2O[C@H](COP(=O)(O)O)[C@@H](O)[C@H]2O)c(=O)[nH]1,,,,,3.2
B1 (protein),Nc1nc2c(ncn2[C@@H]2O[C@H](COP(=O)(O)OP(=O)(O)O)[C@@H](O)[C@H]2O)c(=O)[nH]1,pH 7,30 °C,"transporter, labelled substrate, apparent, not purified",,59
B2 (CMBL),CCCc1nc(C(C)(C)O)c(C(=O)OCc2oc(=O)oc2C)n1Cc1ccc(-c2ccccc2-c2nnn[nH]2)cc1,pH 7.4,37 °C,"wild type, E. coli expressed",,116
B3 (ABCB6),C=CC1=C(C)c2cc3[nH]c(cc4nc(cc5[nH]c(cc1n2)c(C)c5CCC(=O)O)C(CCC(=O)O)=C4C)c(C)c3C=C,pH 8,37 °C,,,4.5
B4 (protein),O=C(/C=C/c1ccc(O)cc1)c1c(O)cc(O)cc1O,,,,,99.6
"Ptb (Listeria monocytogenes, UniProt Q8Y7B7)",CCCCCC(=O)SCCNC(=O)CCNC(=O)[C@H](O)C(C)(C)COP(=O)(O)OP(=O)(O)OC[C@H]1O[C@@H](n2cnc3c(N)ncnc32)[C@H](O)[C@@H]1OP(=O)(O)O,pH 7.5,25 °C,"apparent, poor fit",,31.5
B5 (enzyme),O=C(CO)COP(=O)(O)O,pH 7.2,30 °C,apparent,,0.2
"AphC (Rhodococcus jostii, UniProt Q0S9X1)",Oc1ccc(-c2ccccc2)cc1O,pH 8,25 °C,apparent,O2,7.4
B6 (TcC),O=P(O)(O)OC[C@H]1O[C@H](OP(=O)(O)OP(=O)(O)O)[C@H](O)[C@@H]1O,pH 8.3,37 °C,"GMP biosynthesis, apparent",Gua 100 µM,33
B7 (enzyme I209A),C[S+](CC[C@H](N)C(=O)O)C[C@H]1O[C@@H](n2cnc3c(N)ncnc32)[C@H](O)[C@@H]1O,pH 7.5,50 °C,apparent,,23

# Excerpt of the above:
Molecule,substrate,pH,temperature,notes,added,Km [µM]
"AphC (Rhodococcus jostii, UniProt Q0S9X1)",Oc1ccc(-c2ccccc2)cc1O,pH 8,25 °C,apparent,O2,7.4
